Measurements collected from several papers.
Lines come from different studies, so protocols differ. Values joined by “and” are separate records of one study, mostly repeats; a detail may differ.
Target: Serine/threonine-protein kinase MARK2 (MARK2, Homo sapiens, UniProt Q7KZI7)

Compound | test | test system | setting | how to read | measurement | result
CN1CCN(Cc2ccc(-c3ccc(CO[C@H]4CCC[C@@H]4NC(=O)c4cc(-c5cnn(C)c5)cnc4N)cc3)cc2)CC1 | enzyme activity, inhibitor |  | 0.1 µM |  | inhibition | 3%
O=C=[N][Ru-4]123([n]4c5ccc(O)cc5c5c6c(c7cc(F)c[n+]1c7c54)C(=O)NC6=O)[S+]1CC[S+]2CC[S+]3CC1 (stereo not shown) | enzyme activity |  | 100 nM, human enzyme, added: 10 µM ATP | relative to: untreated | remaining activity | 54%
Cc1cccc(O[C@H]2CCC[C@@H](C(C)CNCc3ccncc3)C2)c1 (relative stereo) | enzyme activity, inhibitor |  | 1 µM |  | inhibition | 0%
COc1cc(Nc2nc(C)cc(-c3cnn4nc(OC)ccc34)n2)cc(C(F)(F)F)c1 | inhibitor |  | 1 µM | relative to: control | remaining activity | 77%
NC(=O)[C@@H](O)C[C@H]1CCc2sc3ncnc(O[C@H]4CC[C@H](N5CCOCC5)CC4)c3c21 | enzyme activity, inhibitor |  | 10 µM |  | inhibition | 2%
C=CC(=O)Nc1cccc(-c2cnc3[nH]cc(C(=O)NC(C)(C)C)c3n2)c1 | enzyme activity, inhibitor |  | 0.1 µM |  | inhibition | 42%
C=CC(=O)N1CCc2ccc(-n3c(=O)ccc4cnc5ccc(-c6cnn(C)c6)cc5c43)cc21 | KINOMEscan |  | 1 µM | relative to: DMSO control | remaining binding | 87%
COCC12C(=O)NC3C4(C(OC)CC1O)C1CC5(O)C(OC)C(O)C(OC(C)=O)(C1C5OC(=O)c1ccccc1)C3(O)C(OC)C24 (stereo not shown) | kinase activity, inhibitor, ProQinase kinase profiling |  | 25 µM | relative to: control | remaining activity | 93% and 87%
C=CC(=O)N1Cc2nc(-c3cc(-c4cc(Cl)cnc4Cl)c(F)cc3F)n(-c3ccncn3)c2C1 | cell-free assay, inhibitor |  | 1 µM |  | inhibition | 4.5%
CS(=O)(=O)Nc1cccc(-c2csc3cnc(Nc4ccc(N5CCN(CCCCCOc6cccc7c6C(=O)N(C6CCC(=O)NC6=O)C7=O)CC5)cc4)nc23)c1 (stereo not shown) | probe labelling, inhibitor, KiNativ chemoproteomics | MOLT-4 | 1 µM |  | inhibition | 5.77%
Cc1ccc(-c2c(/C=C(\C#N)C(=O)NC(C)C)n(CCCO)c3ncnc(N)c23)cc1 | cell-free assay, competition with immobilised ligand |  | 1 µM |  | remaining binding | 77%
CNC(=O)C[C@H](Cc1ccc(C#N)cc1)NC(=O)c1cc(-c2ccc(CN[C@H](C)c3ccc(C)cc3)o2)ccc1Cl | enzyme activity, inhibitor |  | 1 µM |  | activity vs control | 102%
O=C(Cc1ccc(OCc2ccccc2)cc1)NC1(C(=O)O)CCN(C(=O)c2ccc(-c3cccc(Cl)c3)cc2)CC1 | enzyme activity, inhibitor |  | 10 µM |  | activity vs control | 102%
CNC(=O)C1CCN(c2cc(C)c(F)cc2NC(=O)c2ccc(-c3cc(O)ccc3C)c(C)c2)CC1 | binding, competition with immobilised ligand |  | 1 µM |  | remaining binding | 91%
COc1c(Cl)cccc1Nc1c(-c2ccncc2C#C[C@@]2(C)CCCN2C(=O)/C=C/CN(C)C)[nH]c2c1C(=O)NCC2 | binding, competition with immobilised ligand |  | 3 µM |  | remaining binding | 76%
Cc1cnc2nc1Nc1cccc(c1)COC/C=C/COCc1cc(ccc1OCCN1CCOCC1)N2 | binding |  | 0.1 µM |  | remaining binding | 70%
